Measured values of several laboratories.
A part holds a random share of what one study measured.

Series 1
Target: Histone acetyltransferase KAT6A, both winged helices, GST fusion (KAT6A, Homo sapiens, UniProt Q92794, residues 1-181)
Method: protein binding microarray
Form: double-stranded DNA, one strand shown
Sample: in vitro
Concentration: not given
Setting: 8-mer, flanks averaged, mean of 2 arrays, mostly near background
Reference: not given
Reading: higher = stronger binding
Construct (chain): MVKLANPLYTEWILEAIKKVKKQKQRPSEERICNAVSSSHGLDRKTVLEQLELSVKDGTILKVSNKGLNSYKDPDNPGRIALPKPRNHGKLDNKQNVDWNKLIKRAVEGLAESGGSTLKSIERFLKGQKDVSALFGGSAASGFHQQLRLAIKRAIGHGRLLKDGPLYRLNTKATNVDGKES
With `AAACCTAC` the E-score was -0.222.
The E-score of `ACGCCGCC` is reported as 0.321.
With `AGCAGCTC` the E-score was -0.21.
`CCGCGCCC` gave an E-score of 0.329.
With `GATAAACC` the E-score was 0.121.
For `ACTGGGGA`, the E-score was -0.199.
With `ACGATGTG` the E-score was -0.051.
The E-score of `AAGATTCA` is reported as -0.0743.
For `ACTACCCT`, the E-score was -0.226.
With `GGATTGCC` the E-score was 0.0355.
`AAGGCTAT` has an E-score of -0.0965.
`AGTGCAGC` gave an E-score of 0.0524.
The E-score of `CCAACCAC` is reported as -0.204.
`AGATGACC` has an E-score of 0.0675.
`GCGGTGTA` has an E-score of 0.175.
The E-score of `ACGGTCAA` is reported as 0.172.
For `AGCGCCCA`, the E-score was 0.0262.
The E-score of `GTTTATCA` is reported as 0.0789.
`CCTAGAAC` has an E-score of -0.126.
`CCCTGGTA` gave an E-score of -0.206.
The E-score of `CTGCTCAC` is reported as -0.182.
`CCGCAGAG` has an E-score of 0.0706.
The E-score of `ACTTAGCC` is reported as -0.0318.
`AGAACAAG` gave an E-score of -0.196.

Series 2
Target: Interferon regulatory factor 7, full length, phosphomimetic (IRF7, Homo sapiens, UniProt Q92985, residues 1-503, S101K/S471D/S472D/S475D/S476D/S477D/S483D/S484D/S487D)
Sequence of UniProt Q92985 (whole entry, unmodified, looked up): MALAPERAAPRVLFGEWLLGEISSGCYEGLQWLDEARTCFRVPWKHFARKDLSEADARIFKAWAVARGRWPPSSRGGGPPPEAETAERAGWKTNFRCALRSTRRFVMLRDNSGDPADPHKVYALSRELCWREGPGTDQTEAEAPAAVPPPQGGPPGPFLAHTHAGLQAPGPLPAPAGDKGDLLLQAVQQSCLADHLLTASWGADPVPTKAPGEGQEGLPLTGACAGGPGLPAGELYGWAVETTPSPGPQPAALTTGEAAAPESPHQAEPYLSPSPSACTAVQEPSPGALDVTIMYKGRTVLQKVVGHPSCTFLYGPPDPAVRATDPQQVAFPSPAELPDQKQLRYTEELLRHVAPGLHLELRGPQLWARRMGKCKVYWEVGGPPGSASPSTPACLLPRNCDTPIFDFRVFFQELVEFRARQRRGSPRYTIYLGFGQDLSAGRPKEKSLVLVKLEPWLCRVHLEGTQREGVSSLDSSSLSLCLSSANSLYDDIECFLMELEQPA
Method: protein-binding microarray
Form: double-stranded DNA, one strand shown
Sample: in vitro
Concentration: 250 nM
Setting: 60-bp whole probe
Added: salmon DNA 0.4 mg/ml
Reference: random background probes
Reading: higher = stronger binding
All sequences stand within: GCCTAGCAC … GTCTTGATTCGCTTGACGCTGCTG
With `GAAGATTCCAGTTTCGAGACGTGCTAG` the log fluorescence was 6.62 z-score.
`TTAGATTTCGGGTTTCGTTTAGTGCTA` gave a log fluorescence of 8.63 z-score.
The log fluorescence of `CTACACATCTCACTCTAATCGTGCTAG` is reported as 0.359 z-score.
With `GACGGTGTCGGTCTCGGGACGTGCTAG` the log fluorescence was -0.452 z-score.
`GACGGTCTCCTTCTACTGACGTGCTAG` gave a log fluorescence of -0.166 z-score.
The log fluorescence of `TCATGTGCCCATCTCTGACTGTGCTAG` is reported as -0.473 z-score.
`TCACCTTACTTTATGTAACTGTGCTAG` gave a log fluorescence of 0.177 z-score.
For `GACGGACTGGATACTGGGGACGTGCTA`, the log fluorescence was -0.875 z-score.
The log fluorescence of `GTCCTTTTCTTTACTGATGGGTGCTAG` is reported as 2.2 z-score.
`CTCCCTCAGGGTTTCAGATGGTGCTAG` has a log fluorescence of -0.133 z-score.
For `TCAGTCTTCACTCTGCTACTGTGCTAG`, the log fluorescence was -0.14 z-score.
The log fluorescence of `GACGGTCTCCGTCTCCTGACGTGCTAG` is reported as -0.132 z-score.
For `AACGATTTCGGGTATCGAGACGTGCTA`, the log fluorescence was 1 z-score.
`ACAAATACAAGTTTCTCCTTGTGCTAG` gave a log fluorescence of 1.46 z-score.
The log fluorescence of `TCAGTTCTGCTTTGCCTACTGTGCTAG` is reported as 1.92 z-score.
For `GACGATTTCAGACAGGAGACGTGCTAG`, the log fluorescence was 0.09 z-score.
For `TAAGGTCTCGGTCTCGGTTAGTGCTAG`, the log fluorescence was 2.52 z-score.
`TTAGATTTCAATCTCGATTAGTGCTAG` gave a log fluorescence of 0.582 z-score.
`GACGGAGTGCTTATCCTGACGTGCTAG` gave a log fluorescence of -0.281 z-score.
For `GATGATCTCAGTCTCGAGACGTGCTAG`, the log fluorescence was 0.288 z-score.
`GACGGTTCCAGTTTCGGGACGTGCTAG` gave a log fluorescence of 3.67 z-score.
For `GACGGTATCGGTATCGCGACGTGCTAG`, the log fluorescence was 1.16 z-score.
`TTAGATTTCAGTATAGATTAGTGCTAG` has a log fluorescence of 0.12 z-score.

Series 3
Target: RING finger protein unkempt homolog, zinc fingers 1-6, GST-SBP tag (UNK, Homo sapiens, UniProt Q9C0B0, residues 30-357)
Sequence of UniProt Q9C0B0 (30-357, looked up): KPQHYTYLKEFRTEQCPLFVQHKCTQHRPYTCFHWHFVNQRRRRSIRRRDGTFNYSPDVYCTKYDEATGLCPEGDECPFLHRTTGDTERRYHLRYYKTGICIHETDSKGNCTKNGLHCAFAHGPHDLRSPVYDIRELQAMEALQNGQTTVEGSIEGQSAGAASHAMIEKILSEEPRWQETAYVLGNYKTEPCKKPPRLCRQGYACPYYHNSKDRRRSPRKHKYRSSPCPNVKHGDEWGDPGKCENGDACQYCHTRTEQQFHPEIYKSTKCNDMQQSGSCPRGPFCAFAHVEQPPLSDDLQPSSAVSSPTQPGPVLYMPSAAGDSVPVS
Method: RNA Bind-n-Seq
Form: RNA
Sample: in vitro
Concentration: not given
Setting: RNA with constant flanks, human and mouse sites, ends assumed
Reference: input RNA pool
Reading: higher = stronger binding
For `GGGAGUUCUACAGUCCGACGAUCAGUCAGAAGAAGAAAGCUUUAGCAGCAGCCCUUGCCACAGCUCAAGAGUAUUCAGAAAUAAGUAUGGAGCAAAAAAAAUUACAGGAAGCUUUAUCAAAAGCAGCUGGAAAAAAGAAUAAACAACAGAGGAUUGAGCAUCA`, the bound/input enrichment was 0.401 ratio.
With `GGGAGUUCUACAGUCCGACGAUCCCUUCAGUGGUGUAUAGGCUGGAUUCUCUCACCACUCUUUACCUUCGCUUUAAUCGUAUAACUACUGUGGAAAAGGACAUCAAAAACUUGUCAAAACUCAGCAUGCUUAGCAUUCGAGAGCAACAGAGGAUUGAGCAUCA` the bound/input enrichment was 0.106 ratio.
For `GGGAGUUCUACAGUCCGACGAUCCUCAUGGCUGCAGAAACAGGAAGUGGAAAAACUGGUGCAUUUAGUAUUCCCGUUAUCCAGAUAGUGUAUGAAACUCUGAAAGACCAACAGGAAGGAAAGAAAGGGAAAACAACUAUUAAACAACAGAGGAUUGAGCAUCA`, the bound/input enrichment was 0.676 ratio.
With `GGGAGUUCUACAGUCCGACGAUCACAAUCUACUCUGCAACCAAGGCCUUUGUAGAUUUCUUCUCUCAGUGCCUCCAUGAGGAGUAUAAGAGCAAGGGCAUCUUUGUGCAGAGUGUCAUGCCAUACCUUGUAGCUACAAAACUGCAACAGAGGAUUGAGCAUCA` the bound/input enrichment was 0.198 ratio.
With `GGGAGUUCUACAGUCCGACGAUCUAGUUUGUUGUUUAAAAUAAUGUAAUCAUCAAAAUGAUGCAUAUUGUUACACUACUAUUAACUAGGCUUCAGUAUAUCAGUGUUUAUUUCAUUGUGUUAAAUGUAUACUUGUAAAUAAAACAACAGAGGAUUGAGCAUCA` the bound/input enrichment was 0.325 ratio.
`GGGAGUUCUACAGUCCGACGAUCUGGCGUCUGACUUGUAUGUCACAUUUGUGUAAAAUGGUAUAUUCUUUAAAAUAGUGUUGAUAACUGGAAUAUUGUAUGUAUGCUUGGAGAUGCUUUGUGUGAACCUAAGACUGUCACUCACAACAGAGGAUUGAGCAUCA` gave a bound/input enrichment of 1.78 ratio.
`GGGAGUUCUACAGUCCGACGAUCGACCGCCUGGUAGCCUUUCCUACUAGAGUAGCAGGUGGUGUUGGAAUUACCUGUUGGAUUUUAGUCUGUAACAAAGUUGUCGCUAUUGUGCUUCAUCCGUUCAGCUGAACAGGAGGAUGGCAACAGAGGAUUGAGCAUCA` has a bound/input enrichment of 0.71 ratio.
For `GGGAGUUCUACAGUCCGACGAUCAAAUGUUGUUUACCUUCUCAGAGUAGUGCUUUGGGGGUUCCUGGCGGCGUGUUGGAGGUCUAGCACAUACAGCUUCCCUUAACAGAAUAUUUUACGACAGUUUCAUACAGGGUUGCCUUACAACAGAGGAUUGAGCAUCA`, the bound/input enrichment was 0.294 ratio.
`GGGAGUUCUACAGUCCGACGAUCUUGUGUGUGUGGUGAUGGAUGUGCAAGACUCAACACAUGUGAGCUGUAAACUCUACAAGGGGCUGUCAGAUGCACUAAUCUGUACAGACGACUUCAUUGCCAAAGUUGUUCAAAGAUGUACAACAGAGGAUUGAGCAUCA` has a bound/input enrichment of 0.2 ratio.
The bound/input enrichment of `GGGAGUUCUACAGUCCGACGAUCAGAGCUGGUCUUCUUGACACCUUUUCCAAUAUCAGCUUUGCAGAAGGAAACUUAAAUUUCAGUUCAGGGCAUGACCUUCAUGACCUUGCAGAACUUCUUCACUUUCCAGGUUAAGUAAAGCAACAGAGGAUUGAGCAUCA` is reported as 0.18 ratio.
The bound/input enrichment of `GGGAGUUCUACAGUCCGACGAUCUGUGAUAAAAUAAACAGUGAGAUUCCCCCACUGCCUUUCCCUUCAUCAAGGGAACACCAUAAUUUUCUUAAGCUGUGCCUGAAGUUGCUUUCAAAUCACCUUGCUCUGGCCCUGGCGGGACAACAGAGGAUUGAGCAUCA` is reported as 0.292 ratio.

Series 4
Target: Ras GTPase-activating protein-binding protein 1, full length (G3BP1, Homo sapiens, UniProt Q13283)
Sequence of UniProt Q13283 (whole entry, looked up): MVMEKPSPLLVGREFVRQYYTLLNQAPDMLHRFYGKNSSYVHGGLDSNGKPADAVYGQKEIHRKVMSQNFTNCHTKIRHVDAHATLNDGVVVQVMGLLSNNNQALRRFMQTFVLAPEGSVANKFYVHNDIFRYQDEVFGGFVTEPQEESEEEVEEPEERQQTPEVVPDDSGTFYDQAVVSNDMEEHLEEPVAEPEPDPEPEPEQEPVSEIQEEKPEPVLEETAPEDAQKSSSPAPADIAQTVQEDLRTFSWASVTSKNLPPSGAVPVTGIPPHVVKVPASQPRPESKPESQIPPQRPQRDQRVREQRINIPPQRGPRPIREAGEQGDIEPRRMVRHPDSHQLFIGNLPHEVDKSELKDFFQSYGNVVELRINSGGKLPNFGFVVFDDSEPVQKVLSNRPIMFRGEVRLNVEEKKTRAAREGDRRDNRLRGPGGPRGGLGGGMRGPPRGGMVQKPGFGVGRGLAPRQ
Method: RNA Bind-n-Seq
Form: RNA
Sample: in vitro
Concentration: 200 nM
Setting: whole 134-nt RNA, ends assumed
Added: 150 mM LiCl
Reference: input library
Reading: higher = stronger binding
Library: 7-deaza-guanosine replaces G
`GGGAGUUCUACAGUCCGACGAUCGUCCUGUGCUACACAUCGUAUGUACCGAAUCGGGUUUUUGGGGUUUUUGGGUUUUUGGAAAGUAUUAUGUUACGCCGUUCGGAUCUGCACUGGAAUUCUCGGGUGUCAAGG` has a log2 enrichment of -0.212.
The log2 enrichment of `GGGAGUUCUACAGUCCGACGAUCUUGACGAGGCCGGCCCGGGAGAUGAGACCACCGGCCAGGAAGUCAUUGUCAUUCAGGACACGGGCUUUUCUGUGAAGAUCCUCGCCCCUGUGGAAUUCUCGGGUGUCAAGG` is reported as -1.51.
The log2 enrichment of `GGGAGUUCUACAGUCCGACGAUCAAGUCCUGUGCUACACAUCGUAUGUACCGAAUCGGGUUUUUGGGAAAGGGUUUGGGAAAGUAUUAUGUUACGCCGUUCGGAUCUGCACUUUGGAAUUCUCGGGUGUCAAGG` is reported as -1.95.
The log2 enrichment of `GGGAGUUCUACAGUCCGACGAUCCCUGUGCUACACAUCGUAUGUACCGAAUCGUGUGUGUGUGUGUGUGUGUGUGUGUGUGUGUAAAGUAUUAUGUUACGCCGUUCGGAUCUGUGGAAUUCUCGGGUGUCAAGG` is reported as -0.63.
`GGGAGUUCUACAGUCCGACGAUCGCAGGAAGUAAAAACAAAUGGAAAUGCUUCGGAUAGUGGCACGGGUGGGGGUUGCUAAGGAAAGGGUGGGAUGGGAGUGGGUAAAGAGUUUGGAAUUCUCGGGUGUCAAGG` gave a log2 enrichment of -0.1.
The log2 enrichment of `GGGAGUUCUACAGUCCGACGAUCACCAUGCAAAUGGGCAUCUUUGGGAAGUGGGGCAAGGGGGGGAUAGGGAGGGGGGUAACACUUUGGGAACAGGUGGUCCCAGGUCGUUUCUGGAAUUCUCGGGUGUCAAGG` is reported as 0.376.
With `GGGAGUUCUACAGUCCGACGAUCUGGCCCUGGUGGCAUGCGGGGAGGAAGAGGUGGCCUCAUGGAUCGUGGUGGUCCCGGUGGAAAGUUCAGAGGUGGCCGUGGUGGAGACAGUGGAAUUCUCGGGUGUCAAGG` the log2 enrichment was 0.449.
With `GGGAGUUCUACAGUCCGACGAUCGUCCUGUGCUACACAUCGUAUGUACCGAAUCGGGUUUGGGUUUUUUUGGGUUUUUGGGAAAGUAUUAUGUUACGCCGUUCGGAUCUGCACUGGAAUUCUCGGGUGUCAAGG` the log2 enrichment was 0.2.
With `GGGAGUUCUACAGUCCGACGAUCCUGUGCUACACAUCGUAUGUACCGAAUCGGGGCCCCCCCGGGCCCCCCCGGGCCCCCCCGGAAAGUAUUAUGUUACGCCGUUCGGAUCUGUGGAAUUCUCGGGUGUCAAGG` the log2 enrichment was 0.681.
With `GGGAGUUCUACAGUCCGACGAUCUUCUCUAAGAGGAACUCCGGCGCGUCAGAGUAACAGAAGCGAGAGCACAGACAGUCUUGGGGGCUUGUCUCCCUCUGAAGUCACAGCCAUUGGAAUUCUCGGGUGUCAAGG` the log2 enrichment was 0.291.
`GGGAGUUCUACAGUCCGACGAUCCAAGUCCUGUGCUACACAUCGUAUGUACCGAAUCGGGUGGGUUUUUUUGGGAGGGAAAGUAUUAUGUUACGCCGUUCGGAUCUGCACUUCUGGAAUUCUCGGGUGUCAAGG` gave a log2 enrichment of 0.521.

Excerpt of the above (series 1):
With `GATAAACC` the E-score was 0.121.
For `ACTGGGGA`, the E-score was -0.199.
With `ACGATGTG` the E-score was -0.051.
The E-score of `AAGATTCA` is reported as -0.0743.
